Published values collected from several papers.
Compare with care: the assays were run in different laboratories. Numbers after ± are the reported error.
YWHAZ: 14-3-3 protein zeta/delta (YWHAZ, Homo sapiens, UniProt P63104)
UniProt P63104, sequence (whole entry, looked up): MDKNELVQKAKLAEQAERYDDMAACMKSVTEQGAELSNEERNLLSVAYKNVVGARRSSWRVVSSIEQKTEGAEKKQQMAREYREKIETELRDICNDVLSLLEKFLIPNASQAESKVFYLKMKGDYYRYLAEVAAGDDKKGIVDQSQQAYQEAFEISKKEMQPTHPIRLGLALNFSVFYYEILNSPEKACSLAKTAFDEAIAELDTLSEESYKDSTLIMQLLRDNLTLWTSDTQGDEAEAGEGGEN
lecA: PA-I galactophilic lectin (lecA, Pseudomonas aeruginosa, UniProt Q05097)
UniProt P63165, sequence (whole entry, looked up): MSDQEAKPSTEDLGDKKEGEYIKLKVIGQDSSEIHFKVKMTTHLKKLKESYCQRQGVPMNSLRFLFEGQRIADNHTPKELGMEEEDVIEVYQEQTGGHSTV
UniProt Q9FIP9, sequence (whole entry, looked up): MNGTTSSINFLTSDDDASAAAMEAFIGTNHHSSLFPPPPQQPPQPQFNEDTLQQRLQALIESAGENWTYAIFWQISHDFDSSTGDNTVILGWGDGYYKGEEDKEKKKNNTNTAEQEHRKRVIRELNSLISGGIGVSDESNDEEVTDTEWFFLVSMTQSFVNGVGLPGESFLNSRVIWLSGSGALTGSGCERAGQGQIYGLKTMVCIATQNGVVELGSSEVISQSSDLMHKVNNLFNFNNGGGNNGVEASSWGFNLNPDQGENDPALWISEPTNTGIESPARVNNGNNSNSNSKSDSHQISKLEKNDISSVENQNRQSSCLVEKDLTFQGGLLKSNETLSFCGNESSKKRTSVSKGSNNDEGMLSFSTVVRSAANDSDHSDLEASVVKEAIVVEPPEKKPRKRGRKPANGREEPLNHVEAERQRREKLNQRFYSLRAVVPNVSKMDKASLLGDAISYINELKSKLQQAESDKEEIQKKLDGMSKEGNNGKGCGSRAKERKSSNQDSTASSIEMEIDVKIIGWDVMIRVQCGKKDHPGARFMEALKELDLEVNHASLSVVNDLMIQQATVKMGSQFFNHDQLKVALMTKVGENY
UniProt Q9H2X3, sequence (whole entry, looked up): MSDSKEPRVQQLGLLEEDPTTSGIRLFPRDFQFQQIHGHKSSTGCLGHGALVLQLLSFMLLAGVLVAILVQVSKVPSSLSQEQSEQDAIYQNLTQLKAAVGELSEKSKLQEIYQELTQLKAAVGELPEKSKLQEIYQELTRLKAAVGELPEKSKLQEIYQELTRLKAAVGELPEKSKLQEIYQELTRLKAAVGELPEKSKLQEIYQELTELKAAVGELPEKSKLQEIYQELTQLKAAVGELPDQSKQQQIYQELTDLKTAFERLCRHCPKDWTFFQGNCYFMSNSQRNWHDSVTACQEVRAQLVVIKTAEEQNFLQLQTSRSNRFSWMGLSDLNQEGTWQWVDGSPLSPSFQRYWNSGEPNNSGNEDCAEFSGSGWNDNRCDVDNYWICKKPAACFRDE
UniProt P21564, sequence (whole entry, unmodified, looked up): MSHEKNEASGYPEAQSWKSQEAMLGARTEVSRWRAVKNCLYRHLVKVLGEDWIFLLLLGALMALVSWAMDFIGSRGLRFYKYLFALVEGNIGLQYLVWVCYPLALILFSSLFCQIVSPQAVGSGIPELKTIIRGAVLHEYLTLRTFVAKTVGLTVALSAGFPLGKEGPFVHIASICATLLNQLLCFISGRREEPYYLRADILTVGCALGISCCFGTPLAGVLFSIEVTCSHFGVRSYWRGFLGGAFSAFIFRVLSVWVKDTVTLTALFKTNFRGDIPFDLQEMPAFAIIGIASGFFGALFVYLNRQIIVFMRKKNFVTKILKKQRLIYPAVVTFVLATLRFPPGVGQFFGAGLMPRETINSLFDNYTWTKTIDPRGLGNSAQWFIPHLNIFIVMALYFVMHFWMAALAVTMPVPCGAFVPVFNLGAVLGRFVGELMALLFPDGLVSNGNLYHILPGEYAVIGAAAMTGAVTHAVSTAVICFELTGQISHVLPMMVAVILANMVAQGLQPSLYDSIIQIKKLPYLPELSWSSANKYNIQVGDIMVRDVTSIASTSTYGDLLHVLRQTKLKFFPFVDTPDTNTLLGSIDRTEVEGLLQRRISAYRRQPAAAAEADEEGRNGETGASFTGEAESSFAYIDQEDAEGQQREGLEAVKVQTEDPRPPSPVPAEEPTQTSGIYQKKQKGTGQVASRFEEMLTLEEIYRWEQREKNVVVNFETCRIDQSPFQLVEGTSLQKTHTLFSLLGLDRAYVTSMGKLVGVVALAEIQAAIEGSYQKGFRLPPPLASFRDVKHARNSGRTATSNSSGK
UniProt P10686, sequence (whole entry, looked up): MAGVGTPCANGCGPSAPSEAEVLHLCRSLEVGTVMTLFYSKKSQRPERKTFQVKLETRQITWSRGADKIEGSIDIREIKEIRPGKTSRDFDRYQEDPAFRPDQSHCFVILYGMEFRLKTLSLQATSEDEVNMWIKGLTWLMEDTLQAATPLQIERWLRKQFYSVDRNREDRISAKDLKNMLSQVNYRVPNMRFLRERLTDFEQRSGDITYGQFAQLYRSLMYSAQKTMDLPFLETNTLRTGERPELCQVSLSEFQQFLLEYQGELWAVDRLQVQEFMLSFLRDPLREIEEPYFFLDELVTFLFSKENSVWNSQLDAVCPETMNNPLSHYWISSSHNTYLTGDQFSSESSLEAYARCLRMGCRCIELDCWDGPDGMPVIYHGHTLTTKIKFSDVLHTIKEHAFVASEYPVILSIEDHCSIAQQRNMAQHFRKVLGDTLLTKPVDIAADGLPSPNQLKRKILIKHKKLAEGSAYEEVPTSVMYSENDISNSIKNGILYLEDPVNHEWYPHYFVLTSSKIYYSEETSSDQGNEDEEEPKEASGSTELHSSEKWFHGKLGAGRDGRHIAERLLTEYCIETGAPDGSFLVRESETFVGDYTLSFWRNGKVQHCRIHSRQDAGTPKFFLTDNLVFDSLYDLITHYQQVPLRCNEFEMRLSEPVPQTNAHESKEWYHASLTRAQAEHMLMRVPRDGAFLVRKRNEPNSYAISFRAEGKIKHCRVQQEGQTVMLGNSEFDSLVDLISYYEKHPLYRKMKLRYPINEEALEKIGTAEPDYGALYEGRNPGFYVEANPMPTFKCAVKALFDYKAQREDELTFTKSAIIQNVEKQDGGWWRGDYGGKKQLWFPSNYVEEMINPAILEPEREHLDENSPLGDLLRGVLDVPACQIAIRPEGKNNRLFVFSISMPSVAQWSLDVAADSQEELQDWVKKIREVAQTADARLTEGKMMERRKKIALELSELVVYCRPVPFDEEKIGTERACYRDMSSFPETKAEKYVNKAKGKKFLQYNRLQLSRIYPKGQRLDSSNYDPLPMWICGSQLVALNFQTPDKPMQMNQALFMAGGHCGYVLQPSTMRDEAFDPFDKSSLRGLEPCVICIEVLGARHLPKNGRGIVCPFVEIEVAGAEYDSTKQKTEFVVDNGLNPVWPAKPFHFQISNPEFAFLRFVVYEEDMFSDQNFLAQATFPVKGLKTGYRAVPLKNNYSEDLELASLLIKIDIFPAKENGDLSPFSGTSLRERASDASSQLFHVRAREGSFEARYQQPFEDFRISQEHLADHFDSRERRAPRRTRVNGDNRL
UniProt Q9NQG5, sequence (whole entry, looked up): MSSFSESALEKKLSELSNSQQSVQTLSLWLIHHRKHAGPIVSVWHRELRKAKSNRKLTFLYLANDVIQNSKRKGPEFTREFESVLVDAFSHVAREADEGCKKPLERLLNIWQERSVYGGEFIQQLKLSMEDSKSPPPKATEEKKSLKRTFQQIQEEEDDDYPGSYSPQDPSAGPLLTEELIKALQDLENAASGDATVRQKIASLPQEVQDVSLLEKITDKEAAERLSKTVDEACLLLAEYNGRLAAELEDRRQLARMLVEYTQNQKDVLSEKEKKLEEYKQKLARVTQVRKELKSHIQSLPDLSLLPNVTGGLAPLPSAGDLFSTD
UniProt O35082, sequence (whole entry, looked up): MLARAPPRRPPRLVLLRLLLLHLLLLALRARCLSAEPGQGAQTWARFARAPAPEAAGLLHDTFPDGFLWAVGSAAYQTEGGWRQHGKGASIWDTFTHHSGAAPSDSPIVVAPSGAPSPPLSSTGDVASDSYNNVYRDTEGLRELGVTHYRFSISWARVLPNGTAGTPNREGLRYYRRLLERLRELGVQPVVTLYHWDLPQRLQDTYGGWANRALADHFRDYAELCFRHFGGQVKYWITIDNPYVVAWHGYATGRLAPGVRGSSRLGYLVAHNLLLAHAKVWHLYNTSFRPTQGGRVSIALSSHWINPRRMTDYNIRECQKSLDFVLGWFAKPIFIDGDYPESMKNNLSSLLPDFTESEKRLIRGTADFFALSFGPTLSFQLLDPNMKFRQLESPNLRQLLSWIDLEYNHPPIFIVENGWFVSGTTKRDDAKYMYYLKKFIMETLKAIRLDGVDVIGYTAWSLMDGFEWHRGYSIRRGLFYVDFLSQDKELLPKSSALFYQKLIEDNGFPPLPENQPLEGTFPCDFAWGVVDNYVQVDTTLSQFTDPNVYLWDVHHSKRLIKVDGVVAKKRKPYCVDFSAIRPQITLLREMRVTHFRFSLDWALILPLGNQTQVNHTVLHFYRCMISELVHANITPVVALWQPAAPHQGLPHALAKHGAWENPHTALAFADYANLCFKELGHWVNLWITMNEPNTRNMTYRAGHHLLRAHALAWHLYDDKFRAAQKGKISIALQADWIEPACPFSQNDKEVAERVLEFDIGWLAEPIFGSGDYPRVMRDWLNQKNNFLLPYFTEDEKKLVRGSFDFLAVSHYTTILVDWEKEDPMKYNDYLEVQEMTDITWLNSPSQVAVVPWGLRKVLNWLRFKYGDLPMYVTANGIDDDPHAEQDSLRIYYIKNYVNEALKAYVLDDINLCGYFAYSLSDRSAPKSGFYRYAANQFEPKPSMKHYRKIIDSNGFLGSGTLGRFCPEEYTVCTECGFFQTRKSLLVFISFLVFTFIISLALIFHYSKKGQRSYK

Structure (SMILES)	target	assay	test system	conditions	Kd
O=C(O)COc1ccc(Cl)cc1	Chloride channel protein (Torpedo marmorata, UniProt P21564, C212S)	ion current, blocker, inside-out patch clamp	–	intracellular, extrapolated to 0 mV, with: 100 mM extracellular Cl−	45000 µM
CSCC[C@H](NC(C)=O)C(=O)N[C@H](C(=O)N[C@@H](Cc1ccccc1)C(=O)N[C@@H](CC(C)C)C(=O)N[C@@H](CC(=O)O)C(=O)N[C@H](C(=O)N[C@H]1CSCc2cccc(c2)CSC[C@@H](C(=O)N[C@@H](Cc2ccc(O)cc2)C(=O)N[C@H](C(=O)N[C@@H](CO)C(=O)N[C@@H](Cc2ccccc2)C(=O)N[C@@H](CCSC)C(=O)NCC(=O)N[C@@H](CO)C(=O)NCC(=O)N[C@@H](CO)C(=O)NCC(=O)N[C@@H](CO)C(=O)N[C@@H](CC(=O)O)C(=O)N[C@@H](Cc2ccc(O)cc2)C(=O)N[C@@H](CCCCN)C(=O)N[C@@H](CC(=O)O)C(=O)N[C@@H](CC(=O)O)C(=O)N[C@@H](CC(=O)O)C(=O)N[C@@H](CC(=O)O)C(=O)N[C@@H](CCCCN)C(N)=O)C(C)C)NC(=O)[C@H](CCCNC(=N)N)NC(=O)[C@H]([C@@H](C)O)NC1=O)[C@@H](C)O)[C@@H](C)O	FGFR4 (Homo sapiens, UniProt P22455)	binding, BLI	–	–	> 10 µM
CCOc1ccc2c(c1)c(C(=O)O)c(C)n2C	E3 ubiquitin-protein ligase CBL-C (Homo sapiens, UniProt Q9ULV8)	binding, NMR	–	–	400 µM
CC[C@H](C)[C@H](NC(=O)[C@H](Cc1ccc(O)cc1)NC(=O)[C@@H]1CCCN1C(=O)[C@H](CCCCN)NC(=O)[C@H](CCCCN)NC(=O)CCNC(=O)CCNC(=O)[C@H](CCC(=O)NCCC(=O)NCCC(=O)N[C@@H](Cc1ccc(OCC(=O)N[C@@H](Cc2ccccc2)C(=O)NCCCC[C@H](NC(=O)N[C@@H](CCC(=O)O)C(=O)O)C(=O)O)cc1)C(=O)O)NC(=O)CCNC(=O)CCNC(=O)CN1CCN(CC(=O)O)CCN(CC(=O)O)CCN(CC(=O)O)CC1)C(=O)N[C@@H](CC(C)C)C(=O)O [gallium-68 labelled]	NTSR1 (Homo sapiens, UniProt P30989)	saturation binding	PC3-PIP cells	2 h, 4 °C	0.157 ± 0.071 µM
CC(C)C[C@H](NC(=O)[C@@H]1CCCN1C(=O)[C@H](CC(=O)O)NC(=O)[C@H](CO)NC(=O)[C@H](C)NC(=O)CC1c2ccccc2-c2ccccc21)C(=O)NCC(=O)N[C@H](C(=O)N[C@H](C(=O)N[C@@H](CCCNC(=N)N)C(=O)NCC(=O)N[C@@H](CCCNC(=N)N)C(=O)N[C@@H](C)C(=O)N[C@@H](CCCNC(=N)N)C(N)=O)C(C)C)C(C)C	Klotho (Kl, Mus musculus, UniProt O35082)	BLI competition binding	–	30 min, 30 °C, with: 100 nM mouse Klotho, immobilized Pep-10-Biotin	0.009 ± 0.005 µM
CSCC[C@H](NC(=O)[C@H](CO)NC(=O)[C@H](CC(C)C)NC(=O)[C@H](CC(=O)O)NC(=O)[C@H](CC(C)C)NC(=O)[C@H](Cc1ccc(OP(=O)(O)O)cc1)NC(=O)[C@H](CCC(=O)O)NC(=O)[C@H](CCC(N)=O)NC(=O)[C@H](CC(N)=O)NC(=O)[C@H](CO)NC(=O)[C@@H](N)[C@@H](C)O)C(N)=O	1-phosphatidylinositol 4,5-bisphosphate phosphodiesterase gamma-1, N-terminal SH2 domain (Rattus norvegicus, UniProt P10686)	N-SH2 domain binding, isothermal titration calorimetry	–	25 °C	0.433 ± 0.213 µM
CC[C@H](C)[C@H](NC(=O)[C@@H](N)CCCCN)C(=O)N1CCC[C@H]1C(=O)N[C@@H](Cc1ccc(O)cc1)C(=O)N[C@@H](Cc1ccccc1)C(=O)N[C@@H](Cc1c[nH]cn1)C(=O)N[C@@H](C)C(=O)NCC(=O)NCC(=O)N[C@@H](CO)C(=O)N[C@@H](CCCCN)C(=O)N[C@@H](CS)C(=O)N[C@@H](CO)C(=O)N[C@H](C(=O)N[C@@H](Cc1ccc(O)cc1)C(=O)N1CCC[C@H]1C(=O)N[C@@H](CC(C)C)C(=O)N1CCC[C@H]1C(=O)N[C@@H](CCC(N)=O)C(=O)N1CCC[C@H]1C(=O)N[C@@H](CO)C(=O)O)[C@@H](C)OP(=O)(O)O	YWHAZ	binding, isothermal titration calorimetry	–	37 °C, first site, two-site model, with: phosphorylated PRLR peptide	0.4 ± 0.2 µM
CC[C@H](C)[C@H](NC(=O)[C@H](CCC(N)=O)NC(=O)[C@H](CS)NC(=O)[C@H](CC(C)C)NC(=O)[C@H](CCC(=O)O)NC(=O)[C@H](CCC(=O)O)NC(=O)[C@H](CC(=O)O)NC(=O)[C@@H](NC(=O)[C@@H](NC(=O)[C@@H](NC(=O)[C@H](CC(=O)O)NC(=O)[C@H](Cc1ccccc1)NC(=O)[C@@H](NC(=O)[C@H](C)NC(=O)[C@H](CC(=O)O)NC(=O)[C@H](CC(=O)O)NC(=O)CCNC(=O)CCNC(=O)CCCC[C@@H]1SC[C@@H]2NC(=O)N[C@@H]21)C(C)C)[C@@H](C)CC)[C@@H](C)CC)[C@@H](C)O)C(=O)N[C@@H](CCC(N)=O)C(=O)N[C@@H](CCC(=O)O)C(=O)N[C@@H](Cc1c[nH]c2ccccc12)C(N)=O	Gamma-aminobutyric acid receptor-associated protein (Homo sapiens, UniProt O95166)	binding, BLI	–	pH 7.4	1.4 µM
CC[C@H](C)[C@H](NC(=O)[C@@H](NC(=O)[C@H](Cc1c[nH]c2ccccc12)NC(=O)[C@H](CCC(=O)O)NC(=O)[C@H](CO)NC(=S)Nc1ccc2c(c1)C(=O)OC21c2ccc(O)cc2Oc2cc(O)ccc21)C(C)C)C(=O)N[C@H](C(=O)N[C@H](C(=O)N1CCC[C@H]1C(=O)N[C@@H](Cc1ccccc1)C(=O)N[C@@H](C)C(=O)N[C@H](C(=O)N[C@@H](CC(N)=O)C(=O)N[C@@H](CC(C)C)C(=O)O)[C@@H](C)O)[C@@H](C)CC)C(C)C	Rgg transcriptional regulator (Streptococcus pneumoniae, UniProt A0A0E7KI02)	binder, fluorescence polarization	–	20 min, pH 7.4, 20 °C, fluorescein-labelled peptide	4.3 ± 0.2 µM
CC(C)C[C@H](NC(=O)[C@@H]1CCCN1C(=O)[C@H](CCCCN)NC(=O)CCS[C@@H]1O[C@H](CO)[C@H](O)[C@H](O)[C@H]1O)C(=O)NCCCC[C@H](NC(=O)[C@H](CC(C)C)NC(=O)[C@@H]1CCCN1C(=O)[C@H](CCCCN)NC(=O)CCS[C@@H]1O[C@H](CO)[C@H](O)[C@H](O)[C@H]1O)C(=O)N[C@@H](Cc1ccccc1)C(=O)N[C@@H](CS)C(N)=O	lecA	binding, ITC	–	pH 7.5	0.6 µM
CC[C@H](C)[C@H](NC(=O)[C@H](Cc1c[nH]cn1)NC(=O)[C@H](CCCCNC(=O)[C@@H](NC(=O)[C@H](CCCCN)NC(=O)[C@H](Cc1ccccc1)NC(=O)[C@H](CCCCNC(=O)[C@H](CC(C)C)NC(=O)[C@@H]1CCCN1C(=O)[C@H](CCCCN)NC(=O)c1ccc(O[C@@H]2O[C@H](CO)[C@H](O)[C@H](O)[C@H]2O)cc1)NC(=O)[C@H](CC(C)C)NC(=O)[C@@H]1CCCN1C(=O)[C@H](CCCCN)NC(=O)c1ccc(O[C@@H]2O[C@H](CO)[C@H](O)[C@H](O)[C@H]2O)cc1)[C@@H](C)CC)NC(=O)[C@@H](NC(=O)[C@H](CCCCN)NC(=O)[C@H](Cc1ccccc1)NC(=O)[C@H](CCCCNC(=O)[C@H](CC(C)C)NC(=O)[C@@H]1CCCN1C(=O)[C@H](CCCCN)NC(=O)c1ccc(O[C@@H]2O[C@H](CO)[C@H](O)[C@H](O)[C@H]2O)cc1)NC(=O)[C@H](CC(C)C)NC(=O)[C@@H]1CCCN1C(=O)[C@H](CCCCN)NC(=O)c1ccc(O[C@@H]2O[C@H](CO)[C@H](O)[C@H](O)[C@H]2O)cc1)[C@@H](C)CC)C(N)=O	lecA	isothermal titration calorimetry	–	pH 7.5, 25 °C, with: 25 mM CaCl2	0.1 ± 0.01 µM
NCc1cn([C@@H]2[C@@H](OCCn3cc(-c4cc(OCCOCCO)c(C#Cc5cc(OCCOCCO)c(C#Cc6cc(OCCOCCO)c(-c7cn(CCO[C@H]8O[C@H](CO)[C@@H](O)[C@H](O)[C@@H]8n8cc(CN)nn8)nn7)cc6OCCOCCO)cc5OCCOCCO)cc4OCCOCCO)nn3)O[C@H](CO)[C@@H](O)[C@@H]2O)nn1	C-type lectin domain family 4 member M, extracellular domain (CLEC4M, Homo sapiens, UniProt Q9H2X3)	–	–	–	31 ± 14 µM
C[C@@H](O)[C@H](NC(=O)[C@@H]1CCCN1C(=O)[C@H](COP(=O)(O)O)NC(=O)[C@H](Cc1ccc(O)cc1)NC(=O)[C@H](CO)NC(=O)[C@@H]1CCCN1C(=O)[C@H](COP(=O)(O)O)NC(=O)[C@@H](NC(=O)[C@@H]1CCCN1C(=O)[C@H](COP(=O)(O)O)NC(=O)[C@H](Cc1ccc(O)cc1)NC(=O)[C@H](CO)NC(=O)[C@@H]1CCCN1C(=O)[C@@H](N)CO)[C@@H](C)O)C(=O)N[C@@H](COP(=O)(O)O)C(=O)N1CCC[C@H]1C(=O)N[C@@H](CO)C(=O)N[C@@H](Cc1ccc(O)cc1)C(=O)N[C@@H](CO)C(=O)O	Regulation of nuclear pre-mRNA domain-containing protein 1B, CID domain (RPRD1B, Homo sapiens, UniProt Q9NQG5)	isothermal titration calorimetry	–	pH 7.5, 25 °C	> 1000 µM
CC[C@H](C)[C@H](NC(=O)[C@H](CCCNC(=N)N)NC(=O)[C@H](CCCCN)NC(=O)[C@@H](NC(=O)[C@H](C)NC(=O)[C@H](CCCNC(=N)N)NC(=O)[C@H](CCC(N)=O)NC(=O)[C@H](CO)NC(=O)[C@H](CCCCN)NC(=O)[C@H](CC(N)=O)NC(=O)[C@@H](N)CCCNC(=N)N)[C@@H](C)O)C(=O)N[C@@H](CO)C(=O)N[C@@H](Cc1c[nH]cn1)C(=O)N[C@@H](CCSC)C(=O)N1CCC[C@H]1C(=O)N[C@@H](CO)C(=O)N[C@@H](CCCNC(=N)N)C(=O)N1CCC[C@H]1C(=O)N[C@@H](CCC(=O)O)C(=O)N[C@@H](CC(C)C)C(=O)N[C@@H](CO)C(=O)N[C@@H](C)C(=O)N[C@H](C(=O)N[C@@H](C)C(=O)N[C@H](C(=O)N[C@@H](CC(=O)O)C(=O)N[C@@H](CC(C)C)C(=O)N[C@@H](CCCNC(=N)N)C(=O)N[C@@H](CCCCN)C(=O)N[C@@H](CC(=O)O)C(=O)N[C@@H](CCCCN)C(=O)N[C@@H](C)C(=O)N[C@@H](CCCCN)C(=O)N[C@@H](COP(=O)(O)O)C(=O)N[C@@H](CS)C(=O)OC)[C@@H](C)O)C(C)C	YWHAZ	binding, stopped-flow fluorescence polarization	–	–	1.49 µM
CC(C)C[C@H](NC(=O)[C@H](CCCNC(=N)N)NC(=O)[C@H](CCC(=O)O)NC(=O)[C@H](CCCCN)NC(=O)[C@H](CCCNC(=N)N)NC(=O)[C@H](CCCCN)NC(=O)[C@]1(C)CCCC=CCCC[C@](C)(NC(=O)[C@H](CC(C)C)NC(=O)[C@H](CO)NC(=O)[C@]2(C)CCCC=CCCC[C@](C)(NC(=O)[C@@H]3CCCN3C(=O)[C@@H](NC(=O)[C@H](CO)NC(=O)c3ccc4c(c3)C(=O)OC43c4ccc(N(C)C)cc4Oc4cc(N(C)C)ccc43)C(C)C)C(=O)N[C@@H](C)C(=O)N[C@@H](CCCNC(=N)N)C(=O)N[C@@H](CCCCN)C(=O)N2)C(=O)N[C@@H](CCCNC(=N)N)C(=O)N[C@@H](Cc2ccccc2)C(=O)N[C@@H](CC(C)C)C(=O)N1)C(=O)O	Transcription factor MYC3 (MYC3, Arabidopsis thaliana, UniProt Q9FIP9)	binding, fluorescence anisotropy	–	pH 8.0, apparent Kd, with: 100 nM TMR-labelled JAZ peptide	0.1 ± 0.02 µM
CC[C@H](C)[C@H](NC(=O)[C@H](CC(C)C)NC(=O)[C@H](CC(C)C)NC(=O)CNC(=O)[C@H](CCCCN)NC(=O)[C@H](C)NC(=O)[C@H](CC(C)C)NC(=O)[C@H](CC(C)C)NC(=O)[C@H](CCCCN)NC(=O)[C@H](Cc1c[nH]c2ccccc12)NC(=O)[C@@H](N)CC(N)=O)C(=O)N[C@@H](CCCNC(=N)N)C(=O)N[C@@H](CCC(=O)O)C(=O)N[C@@H](CCCNC(=N)N)C(=O)N[C@@H](CC(C)C)C(=O)N[C@@H](CCCCN)C(=O)N[C@@H](CCCNC(=N)N)C(=O)O	Centrin-1, N-terminal 21 residues deleted (CEN1, Toxoplasma gondii, UniProt A0A125YHX7)	isothermal titration calorimetry	–	pH 7.5, 25 °C, 5 mM EGTA, single-site fit	0.0591 ± 0.0118 µM
CCCCCCCCCCCCCCCC(=O)NCCCC[C@H](NC(=O)[C@H](CCCNC(=N)N)NC(=O)[C@H](Cc1ccc(O)cc1)NC(=O)[C@H](CC(C)C)NC(=O)[C@H](CCCNC(=N)N)NC(=O)CNS(=O)(=O)c1ccc(N)cc1)C(N)=O	lipopolysaccharide	binding, fluorescence quenching	–	–	~0.000793 µM
CC(C)[C@H](NC(=O)[C@H](CCC(=O)O)NC(=O)[C@H](CCC(N)=O)NC(=O)[C@H](CO)NC(=O)[C@H](Cc1c[nH]cn1)NC(=O)[C@H](CCCNC(=N)N)NC(=O)[C@H](CC(N)=O)NC(=O)[C@H](Cc1c[nH]cn1)NC(=O)[C@@H](NC(=O)[C@@H](N)CCCCN)[C@@H](C)O)C(=O)N1CCC[C@H]1C(=O)N[C@@H](C)C(=O)O	Small ubiquitin-related modifier 1 (Homo sapiens, UniProt P63165)	binding, BLI	–	–	0.837 µM
